Published values from different studies.
“And” joins repeats or separate records; there may be more than shown. Numbers after ± are the reported error.
UniProt P48067, sequence (whole entry, looked up): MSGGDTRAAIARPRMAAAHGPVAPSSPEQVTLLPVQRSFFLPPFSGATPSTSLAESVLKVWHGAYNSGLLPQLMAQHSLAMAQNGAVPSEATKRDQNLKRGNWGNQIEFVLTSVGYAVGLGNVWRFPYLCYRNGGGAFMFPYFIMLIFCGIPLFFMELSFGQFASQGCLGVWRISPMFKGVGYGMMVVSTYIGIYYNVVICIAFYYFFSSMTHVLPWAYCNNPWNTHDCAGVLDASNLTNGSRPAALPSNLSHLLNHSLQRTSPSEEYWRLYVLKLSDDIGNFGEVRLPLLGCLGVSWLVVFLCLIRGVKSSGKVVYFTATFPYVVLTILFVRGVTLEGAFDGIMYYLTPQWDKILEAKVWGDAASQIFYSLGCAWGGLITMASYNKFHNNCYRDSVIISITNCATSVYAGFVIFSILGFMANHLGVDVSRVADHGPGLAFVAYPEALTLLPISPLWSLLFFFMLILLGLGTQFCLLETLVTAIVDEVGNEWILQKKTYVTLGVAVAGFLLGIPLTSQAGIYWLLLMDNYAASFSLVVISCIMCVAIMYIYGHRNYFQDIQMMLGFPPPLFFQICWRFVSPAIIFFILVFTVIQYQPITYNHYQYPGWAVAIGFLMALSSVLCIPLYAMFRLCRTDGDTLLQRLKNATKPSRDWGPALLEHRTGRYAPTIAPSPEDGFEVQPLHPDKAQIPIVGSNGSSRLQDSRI
UniProt Q64663, sequence (whole entry, unmodified, looked up): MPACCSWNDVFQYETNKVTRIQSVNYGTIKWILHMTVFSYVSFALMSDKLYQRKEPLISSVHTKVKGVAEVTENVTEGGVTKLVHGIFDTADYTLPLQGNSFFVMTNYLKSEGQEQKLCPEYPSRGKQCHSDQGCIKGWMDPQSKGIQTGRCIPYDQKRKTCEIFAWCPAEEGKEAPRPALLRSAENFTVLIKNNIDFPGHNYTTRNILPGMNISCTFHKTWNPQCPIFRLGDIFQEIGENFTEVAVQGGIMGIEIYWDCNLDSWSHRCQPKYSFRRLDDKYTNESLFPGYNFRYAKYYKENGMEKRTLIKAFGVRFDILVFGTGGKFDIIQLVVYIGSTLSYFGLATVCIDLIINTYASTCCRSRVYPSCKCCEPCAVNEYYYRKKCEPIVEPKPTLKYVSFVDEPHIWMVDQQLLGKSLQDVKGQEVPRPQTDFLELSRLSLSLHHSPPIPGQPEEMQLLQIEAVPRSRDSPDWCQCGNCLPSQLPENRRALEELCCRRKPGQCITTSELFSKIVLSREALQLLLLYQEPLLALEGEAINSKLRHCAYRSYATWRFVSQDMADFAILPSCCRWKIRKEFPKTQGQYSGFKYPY

For `QDEKVKESYV`, the binding intensity was 0.365 (human MAGI1-2/6 PDZ construct (MBP fusion); automated holdup; peptide, crude extract; concentration not given, uncorrected, unit not given; baseline: biotin control resin, higher = stronger binding).
`caspofungin` gave a potassium of 4.1 mmol/L (adult ICU patients, mITT, serum; dose not given, Follow-up).
For `SEKHFRETEV`, the binding intensity was 0.133 (human MAGI1-3/6 PDZ construct (MBP fusion); automated holdup; peptide, purified PDZ protein; concentration not given, unit not given; baseline: biotin control resin, higher = stronger binding).
`hemoglobin beta` has a co-IP enrichment of 64800 (co-immunoprecipitation; human RBC cytosol; DMTMM crosslinker, unit not given, with: Band 3 peptide 1-56 bait; baseline: negative control).
`MTVCNASQRQAHAQATAVSL` gave a selectivity ratio of 4.8 ± 1.5 (H2122 lung adenocarcinoma; phage binding output/input; peptide; baseline: control phage).
`GLFQWISGA` gave a reporter activation of 0.11% (Jurkat T cells expressing 1G4 TCR; NFAT-eGFP reporter, flow cytometry; peptide; concentration not given, HLA-A*02:01 NY-ESO system).
`human clusterin` gave a co-IP enrichment of 0 (co-immunoprecipitation; human RBC membrane; DMTMM crosslinker, unit not given, with: Band 3 peptide 1-56 bait; baseline: negative control).
For `DNA 1 CACTGGCCGTCTTACGGTCGCTCTGCTCGACG / DNA 2 CGACCGTAAGACGGCCAGTG (dsDNA; 20 bp, 3' 12 nt overhang)`, the Kd was 86.7 ± 32.8 nM (RECQL 63-592 K325A (Homo sapiens, UniProt P46063); fluorescence anisotropy; double-stranded DNA; with: Mg2+ 3 mM).
`FNA / CGLSGLGVA-NH2 ([18F]FNA-labelled, C-amide)` gave a tissue uptake of 1.34 %ID/g (ex vivo gamma counting; peptide, healthy mouse, plasma; 60 min post injection).
`human LDL receptor` has a co-IP enrichment of 0 (co-immunoprecipitation; human RBC membrane; DSSO crosslinker, unit not given, with: Band 3 peptide 1-56 bait; baseline: negative control).
With `ALLEWVSQV` the reporter activation was 0.00778% (Jurkat T cells expressing 1G4 TCR; NFAT-eGFP reporter, fluorescence microscopy; peptide; concentration not given, HLA-A*02:01 NY-ESO system).
`GSGAGSETVV`: “normalised SPR binding response” 19.4 normalised RU (human MAGI1-2/6 PDZ construct (MBP fusion); surface plasmon resonance; peptide; concentration not given; higher = stronger binding).
`Polymyxin B` gave a membrane depolarisation of 680 a.u. and 884 a.u. and 665 a.u. (Staphylococcus aureus; DiSC3(5) fluorescence; concentration not given, 33 min; higher = more depolarisation).
`human complement C3` gave a co-IP enrichment of 0 (co-immunoprecipitation; human RBC membrane; DMTMM crosslinker, unit not given, with: Band 3 peptide 1-56 bait; baseline: negative control).
`KDECVIATEV` has a binding intensity of 0.00931 (human MAGI1-2/6 PDZ construct (MBP fusion); automated holdup; peptide, purified PDZ protein; concentration not given, unit not given; baseline: biotin control resin, higher = stronger binding).
With `human HSC70` the co-IP enrichment was 3170 (co-immunoprecipitation; human RBC cytosol; DMTMM crosslinker, unit not given, with: Band 3 peptide 1-56 bait; baseline: negative control).
With `colistin` the MIC was 8 µg/mL (Escherichia coli; broth microdilution; clinical isolate RKI-No_330/16).
For `GLAQWIPQV`, the reporter activation was 0.0168% (Jurkat T cells expressing 1G4 TCR; NFAT-eGFP reporter, fluorescence microscopy; peptide; concentration not given, HLA-A*02:01 NY-ESO system).
`insulin degludec` gave a terminal half-life of 16.8 ± 4.2 h (human; subcutaneous, 0.4 IU/kg, 3 FC level, single dose, reference formulation).
For `CLLEWITHV`, the reporter activation was 0.23% (Jurkat T cells expressing 1G4 TCR; NFAT-eGFP reporter, flow cytometry; peptide; concentration not given, HLA-A*02:01 NY-ESO system).
For `11-deoxycorticosterone`, “rate constant k-3” read 0.489 min⁻¹ (CYP11B2 (human); substrate binding, stopped-flow kinetic modelling; 4-state branched induced-fit model, with: no adrenodoxin).
`GGWVEKETYY` gave a binding intensity of 0.0743 (human MAGI1-2/6 PDZ construct (MBP fusion); automated holdup; peptide, purified PDZ protein; concentration not given, unit not given; baseline: biotin control resin, higher = stronger binding).
The reporter activation of `GLFQWISQA` is reported as 0.654% (Jurkat T cells expressing 1G4 TCR; NFAT-eGFP reporter, fluorescence microscopy; peptide; concentration not given, HLA-A*02:01 NY-ESO system).
`epoetin alfa` has a mRNA level of 50.2 fold (UT7/EPO; microarray, item: OSM mRNA (probe set 230170_at); 5 U/mL, 90 min; baseline: vehicle).
Under “mean fluorescence intensity”, `ACEQNPIYWARYADWLFTTPLLLLDLALLVDADEGT` is recorded as 249 ± 23.2 a.u. (ex vivo fluorescence imaging; peptide, BALB/c mice, 4T1 tumour-bearing, muscle; intravenous, 5 nmol, 24 h post-injection; higher = more uptake).
The normalized current of `BzATP` is reported as 0.27 and 0.31 and 0.36 (P2X purinoceptor 7 (P2rx7, Rattus norvegicus, UniProt Q64663, I214A/Q143A); ion current, agonist, two-electrode voltage clamp; Xenopus oocytes; 33 µM).
For `cotadutide`, the metabolite level was 1.11 ± 0.05 scaled intensity (metabolomics, item: hepatic aspartate; ob/ob mice on AMLN diet, NASH model, liver; dose not given).
For `triosephosphate isomerase`, the co-IP enrichment was 0.497 (co-immunoprecipitation; human RBC membrane; DSSO crosslinker, unit not given, with: Band 3 peptide 1-56 bait; baseline: negative control).
The OD600 of `milbemycin oxime` is reported as 1 and 1.02 (Saccharomyces cerevisiae; cell growth; Pdr5 deleted, Cdr1 overexpressed; 2^-6.644 µg/mL, with: fluconazole 1 µg/mL).
`Teicoplanin` gave a recovery of 101% (QC solution; 2 days, 2–6 °C, high QC level).
With `SLLQWISQV` the reporter activation was 79.2% (Jurkat T cells expressing 1G4 TCR; NFAT-eGFP reporter, flow cytometry; peptide; concentration not given, HLA-A*02:01 NY-ESO system).
With `GSGAGICTIV` the binding intensity was 0.135 (human MAGI1-3/6 PDZ construct (MBP fusion); automated holdup; peptide, crude extract; concentration not given, corrected by standard peak, unit not given; baseline: biotin control resin, higher = stronger binding).
`LVHYTHCGSLGV` gave a body weight of 19.6 g and 19.7 g (Epstein-Barr virus; peptide, EBV-infected humanized B-NDG mice; 20 mg/kg, day 42).
For `ALQQWVTQV`, the reporter activation was 25.9% (Jurkat T cells expressing 1G4 TCR; NFAT-eGFP reporter, fluorescence microscopy; peptide; concentration not given, HLA-A*02:01 NY-ESO system).
`SEC11A` gave a co-IP enrichment of 1.56 (co-immunoprecipitation; human RBC membrane; unit not given, with: Band 3 peptide 1-56 bait; baseline: negative control).
`Peginesatide` gave a phosphorylation level of 20 fold (UT7/EPO; tyrosine phosphorylation, LC-MS/MS phosphoproteomics, GluC, item: PTPN18 tyrosine 387; 10 nM, 15 min, with: 10 U/mL EPO; baseline: vehicle).
`human desmoplakin` has a co-IP enrichment of 0 (co-immunoprecipitation; human plasma; no crosslinker, unit not given, with: Band 3 peptide 1-56 bait; baseline: negative control).
Under “mean fluorescence intensity”, `ACDDQNPWRAYLDLLFPTDTLLLDLLW` is recorded as 298 ± 28.6 a.u. (ex vivo fluorescence imaging; peptide, BALB/c mice, 4T1 tumour-bearing, muscle; intravenous, 5 nmol, 24 h post-injection; higher = more uptake).
With `GSGAGKESYV` the binding intensity was 0.552 (human SCRIB PDZ3-4 tandem (MBP fusion); automated holdup; peptide, purified PDZ protein; concentration not given, unit not given; baseline: biotin control resin, higher = stronger binding).
`ALFQWISQV` has a reporter activation of 63.9% (Jurkat T cells expressing 1G4 TCR; NFAT-eGFP reporter, flow cytometry; peptide; concentration not given, HLA-A*02:01 NY-ESO system).
The binding intensity of `GSGAGIESNV` is reported as -0.0665 (human MAGI1-2/6 PDZ construct (MBP fusion); automated holdup; peptide, purified PDZ protein; concentration not given, unit not given; baseline: biotin control resin, higher = stronger binding).
Under “glycine uptake rate”, `methyl-β-cyclodextrin` is recorded as 69.4 a.u. and 53.4 a.u. and 52.4 a.u. (SLC6A9 (Homo sapiens, UniProt P48067); transport activity, [3H]glycine uptake; 3.5 mg/mL, 1 min, with: glycine 900 µM; higher = more transport).
